Assay results from different studies.
Compare with care: the assays were run in different laboratories. “And” joins repeats or separate records; there may be more than shown. Numbers after ± are the reported error.
Butyrylcholinesterase: Butyrylcholinesterase (Sus scrofa, UniProt A0A4X1VEU5)
OPRK1: Kappa-type opioid receptor (OPRK1, Homo sapiens, UniProt P41145)
ACHE: Acetylcholinesterase (ACHE, Homo sapiens, UniProt P22303)
OPRM1: Mu-type opioid receptor (OPRM1, Homo sapiens, UniProt P35372)
Oprm1: Mu-type opioid receptor (Oprm1, Rattus norvegicus, UniProt P33535)
Muscarinic acetylcholine receptor: Muscarinic acetylcholine receptor (Xenopus laevis, UniProt A0A8J0U760)
OPRL1: Nociceptin receptor (OPRL1, Homo sapiens, UniProt P41146)
inhA: Enoyl-[acyl-carrier-protein] reductase [NADH] (inhA, Mycobacterium tuberculosis, UniProt P9WGR1)

Chains of the proteins cited; added tags and fusions are not shown. Residues count along the entry.
UniProt P41145, whole entry: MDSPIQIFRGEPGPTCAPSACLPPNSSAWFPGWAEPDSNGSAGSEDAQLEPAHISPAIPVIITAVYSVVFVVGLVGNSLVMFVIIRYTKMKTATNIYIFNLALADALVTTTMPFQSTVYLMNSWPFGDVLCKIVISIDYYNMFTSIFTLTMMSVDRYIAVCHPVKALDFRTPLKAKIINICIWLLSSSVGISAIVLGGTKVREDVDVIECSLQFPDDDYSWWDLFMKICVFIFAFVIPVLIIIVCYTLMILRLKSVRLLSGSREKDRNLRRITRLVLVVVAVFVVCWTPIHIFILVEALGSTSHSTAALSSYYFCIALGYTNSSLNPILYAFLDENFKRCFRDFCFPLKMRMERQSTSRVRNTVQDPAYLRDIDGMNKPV
UniProt P22303, 32-614 limits assumed: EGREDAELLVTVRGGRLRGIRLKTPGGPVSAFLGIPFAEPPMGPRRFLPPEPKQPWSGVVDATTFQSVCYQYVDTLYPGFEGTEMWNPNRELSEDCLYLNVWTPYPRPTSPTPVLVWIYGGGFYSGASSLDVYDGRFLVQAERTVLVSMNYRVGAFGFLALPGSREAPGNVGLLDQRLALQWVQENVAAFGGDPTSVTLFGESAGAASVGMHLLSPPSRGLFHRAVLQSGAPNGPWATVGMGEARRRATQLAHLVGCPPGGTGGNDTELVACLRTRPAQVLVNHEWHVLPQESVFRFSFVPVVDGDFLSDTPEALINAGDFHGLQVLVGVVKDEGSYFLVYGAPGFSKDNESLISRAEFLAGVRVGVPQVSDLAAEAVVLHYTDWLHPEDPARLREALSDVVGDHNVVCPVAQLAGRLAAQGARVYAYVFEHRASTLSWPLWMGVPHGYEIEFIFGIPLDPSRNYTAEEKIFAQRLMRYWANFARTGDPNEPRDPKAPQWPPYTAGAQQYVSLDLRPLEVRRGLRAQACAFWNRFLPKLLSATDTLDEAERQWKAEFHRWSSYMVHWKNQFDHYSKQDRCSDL
UniProt P22303, whole entry, looked up: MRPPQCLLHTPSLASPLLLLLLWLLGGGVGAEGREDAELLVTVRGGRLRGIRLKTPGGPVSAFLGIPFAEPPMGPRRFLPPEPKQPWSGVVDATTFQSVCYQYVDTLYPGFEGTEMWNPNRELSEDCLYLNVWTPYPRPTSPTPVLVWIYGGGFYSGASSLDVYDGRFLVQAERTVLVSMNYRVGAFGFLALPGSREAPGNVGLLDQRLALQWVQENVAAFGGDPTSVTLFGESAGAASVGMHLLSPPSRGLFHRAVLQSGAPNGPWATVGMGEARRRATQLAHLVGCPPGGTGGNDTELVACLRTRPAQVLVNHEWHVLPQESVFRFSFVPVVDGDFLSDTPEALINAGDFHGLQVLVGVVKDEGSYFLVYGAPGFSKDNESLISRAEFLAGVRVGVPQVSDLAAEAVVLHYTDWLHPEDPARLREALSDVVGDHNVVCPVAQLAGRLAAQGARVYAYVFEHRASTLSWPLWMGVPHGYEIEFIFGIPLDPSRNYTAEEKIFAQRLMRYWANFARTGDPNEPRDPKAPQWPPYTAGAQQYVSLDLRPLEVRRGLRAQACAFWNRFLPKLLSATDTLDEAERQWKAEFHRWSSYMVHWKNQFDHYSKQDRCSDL
UniProt P35372, whole entry: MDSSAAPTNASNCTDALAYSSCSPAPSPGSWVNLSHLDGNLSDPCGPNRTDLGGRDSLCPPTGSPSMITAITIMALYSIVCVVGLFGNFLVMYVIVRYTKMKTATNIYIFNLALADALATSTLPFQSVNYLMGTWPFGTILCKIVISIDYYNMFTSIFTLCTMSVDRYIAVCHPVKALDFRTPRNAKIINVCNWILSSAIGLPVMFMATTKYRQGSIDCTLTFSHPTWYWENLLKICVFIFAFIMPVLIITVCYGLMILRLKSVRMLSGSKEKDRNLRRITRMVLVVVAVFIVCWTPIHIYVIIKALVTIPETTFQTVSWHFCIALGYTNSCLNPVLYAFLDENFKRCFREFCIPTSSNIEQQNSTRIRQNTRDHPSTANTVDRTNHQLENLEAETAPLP
UniProt P33535, whole entry: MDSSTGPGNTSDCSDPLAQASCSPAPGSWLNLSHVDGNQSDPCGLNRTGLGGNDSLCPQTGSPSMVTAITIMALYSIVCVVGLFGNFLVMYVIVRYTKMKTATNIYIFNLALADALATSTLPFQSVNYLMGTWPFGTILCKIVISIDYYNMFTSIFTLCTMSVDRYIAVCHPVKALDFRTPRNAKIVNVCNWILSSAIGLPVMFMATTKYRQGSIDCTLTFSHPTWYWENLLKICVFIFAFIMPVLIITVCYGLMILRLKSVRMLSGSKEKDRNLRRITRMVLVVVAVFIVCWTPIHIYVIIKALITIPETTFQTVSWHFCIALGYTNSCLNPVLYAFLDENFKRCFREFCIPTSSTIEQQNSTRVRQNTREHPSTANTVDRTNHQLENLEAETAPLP
UniProt A0A8J0U760, 1-470: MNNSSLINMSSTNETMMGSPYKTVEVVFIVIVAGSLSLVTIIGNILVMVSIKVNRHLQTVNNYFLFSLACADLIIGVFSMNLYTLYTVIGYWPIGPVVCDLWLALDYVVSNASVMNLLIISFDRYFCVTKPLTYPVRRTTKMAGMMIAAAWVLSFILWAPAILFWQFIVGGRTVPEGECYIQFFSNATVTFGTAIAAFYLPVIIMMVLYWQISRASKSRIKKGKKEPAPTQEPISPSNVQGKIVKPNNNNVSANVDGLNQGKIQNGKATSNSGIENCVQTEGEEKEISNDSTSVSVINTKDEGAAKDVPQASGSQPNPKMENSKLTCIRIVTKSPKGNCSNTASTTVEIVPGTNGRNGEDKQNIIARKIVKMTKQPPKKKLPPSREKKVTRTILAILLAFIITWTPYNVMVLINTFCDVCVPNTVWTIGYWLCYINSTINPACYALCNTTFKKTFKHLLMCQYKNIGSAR
UniProt P41146, whole entry: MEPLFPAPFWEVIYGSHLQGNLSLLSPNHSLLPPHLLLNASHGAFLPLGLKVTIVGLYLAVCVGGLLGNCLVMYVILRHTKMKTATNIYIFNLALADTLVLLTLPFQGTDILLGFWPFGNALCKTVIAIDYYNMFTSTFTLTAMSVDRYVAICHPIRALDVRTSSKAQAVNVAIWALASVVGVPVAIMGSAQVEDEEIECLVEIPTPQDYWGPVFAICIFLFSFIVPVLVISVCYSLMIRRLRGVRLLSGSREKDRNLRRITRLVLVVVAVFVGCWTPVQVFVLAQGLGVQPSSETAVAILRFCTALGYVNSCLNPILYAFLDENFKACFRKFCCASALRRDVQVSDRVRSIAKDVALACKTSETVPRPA
UniProt P9WGR1, whole entry: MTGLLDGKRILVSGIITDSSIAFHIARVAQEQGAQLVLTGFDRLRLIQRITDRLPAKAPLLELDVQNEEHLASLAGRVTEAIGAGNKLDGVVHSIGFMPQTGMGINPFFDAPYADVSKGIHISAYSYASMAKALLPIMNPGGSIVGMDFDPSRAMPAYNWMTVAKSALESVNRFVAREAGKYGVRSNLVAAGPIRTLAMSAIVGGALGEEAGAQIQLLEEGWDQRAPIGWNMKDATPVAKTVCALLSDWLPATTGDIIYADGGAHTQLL
UniProt P54582, whole entry G153D: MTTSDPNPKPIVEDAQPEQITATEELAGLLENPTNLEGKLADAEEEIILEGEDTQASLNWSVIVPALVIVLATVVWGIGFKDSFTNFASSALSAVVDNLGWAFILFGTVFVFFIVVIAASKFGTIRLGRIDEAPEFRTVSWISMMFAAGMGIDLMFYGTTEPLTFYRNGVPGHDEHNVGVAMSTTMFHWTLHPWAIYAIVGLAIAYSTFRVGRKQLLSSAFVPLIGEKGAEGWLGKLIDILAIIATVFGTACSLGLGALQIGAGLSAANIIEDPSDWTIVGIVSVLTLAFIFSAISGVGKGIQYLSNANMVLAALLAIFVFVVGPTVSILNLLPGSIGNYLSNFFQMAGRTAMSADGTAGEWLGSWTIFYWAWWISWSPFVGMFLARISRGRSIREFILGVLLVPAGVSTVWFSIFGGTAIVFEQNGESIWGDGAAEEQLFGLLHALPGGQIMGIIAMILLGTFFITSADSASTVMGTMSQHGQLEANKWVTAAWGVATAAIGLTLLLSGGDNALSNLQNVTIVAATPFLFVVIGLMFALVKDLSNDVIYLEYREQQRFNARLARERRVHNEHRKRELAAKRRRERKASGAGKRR
UniProt Q8T632, 1-509: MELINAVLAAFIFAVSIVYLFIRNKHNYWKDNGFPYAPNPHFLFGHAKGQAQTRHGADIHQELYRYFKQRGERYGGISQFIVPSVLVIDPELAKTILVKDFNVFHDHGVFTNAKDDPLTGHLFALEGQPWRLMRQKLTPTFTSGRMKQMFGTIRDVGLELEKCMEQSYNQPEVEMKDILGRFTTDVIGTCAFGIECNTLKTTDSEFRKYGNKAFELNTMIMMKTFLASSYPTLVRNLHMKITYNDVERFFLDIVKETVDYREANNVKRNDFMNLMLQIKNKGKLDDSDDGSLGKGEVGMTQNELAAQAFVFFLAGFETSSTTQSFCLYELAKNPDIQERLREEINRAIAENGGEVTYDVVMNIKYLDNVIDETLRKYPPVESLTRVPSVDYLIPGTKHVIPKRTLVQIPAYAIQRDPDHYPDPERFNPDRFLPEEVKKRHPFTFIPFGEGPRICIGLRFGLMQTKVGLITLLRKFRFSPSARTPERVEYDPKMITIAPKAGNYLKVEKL
UniProt P33534, whole entry: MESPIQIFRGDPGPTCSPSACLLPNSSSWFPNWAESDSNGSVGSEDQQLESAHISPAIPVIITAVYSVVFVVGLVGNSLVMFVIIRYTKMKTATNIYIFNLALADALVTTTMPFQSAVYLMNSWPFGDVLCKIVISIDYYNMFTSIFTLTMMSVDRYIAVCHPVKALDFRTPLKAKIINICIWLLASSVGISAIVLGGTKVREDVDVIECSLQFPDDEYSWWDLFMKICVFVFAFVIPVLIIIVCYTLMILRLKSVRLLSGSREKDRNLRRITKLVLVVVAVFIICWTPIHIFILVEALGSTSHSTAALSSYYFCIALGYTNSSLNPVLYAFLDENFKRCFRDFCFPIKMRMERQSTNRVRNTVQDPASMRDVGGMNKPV
UniProt L7N662, 1-485: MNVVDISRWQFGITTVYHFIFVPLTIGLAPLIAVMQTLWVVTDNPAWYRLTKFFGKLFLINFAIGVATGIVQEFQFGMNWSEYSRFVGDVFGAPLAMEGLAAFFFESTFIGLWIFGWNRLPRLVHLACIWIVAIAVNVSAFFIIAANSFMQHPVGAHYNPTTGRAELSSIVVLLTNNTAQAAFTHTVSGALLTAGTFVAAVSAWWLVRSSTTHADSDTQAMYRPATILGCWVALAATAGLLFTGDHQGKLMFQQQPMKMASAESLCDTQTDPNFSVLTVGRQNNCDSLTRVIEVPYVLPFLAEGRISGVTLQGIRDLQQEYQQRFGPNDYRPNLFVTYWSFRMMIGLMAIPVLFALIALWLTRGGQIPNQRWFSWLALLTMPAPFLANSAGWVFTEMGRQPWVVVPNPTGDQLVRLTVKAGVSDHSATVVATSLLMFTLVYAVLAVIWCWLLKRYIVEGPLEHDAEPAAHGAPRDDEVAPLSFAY
UniProt P35869, whole entry, looked up: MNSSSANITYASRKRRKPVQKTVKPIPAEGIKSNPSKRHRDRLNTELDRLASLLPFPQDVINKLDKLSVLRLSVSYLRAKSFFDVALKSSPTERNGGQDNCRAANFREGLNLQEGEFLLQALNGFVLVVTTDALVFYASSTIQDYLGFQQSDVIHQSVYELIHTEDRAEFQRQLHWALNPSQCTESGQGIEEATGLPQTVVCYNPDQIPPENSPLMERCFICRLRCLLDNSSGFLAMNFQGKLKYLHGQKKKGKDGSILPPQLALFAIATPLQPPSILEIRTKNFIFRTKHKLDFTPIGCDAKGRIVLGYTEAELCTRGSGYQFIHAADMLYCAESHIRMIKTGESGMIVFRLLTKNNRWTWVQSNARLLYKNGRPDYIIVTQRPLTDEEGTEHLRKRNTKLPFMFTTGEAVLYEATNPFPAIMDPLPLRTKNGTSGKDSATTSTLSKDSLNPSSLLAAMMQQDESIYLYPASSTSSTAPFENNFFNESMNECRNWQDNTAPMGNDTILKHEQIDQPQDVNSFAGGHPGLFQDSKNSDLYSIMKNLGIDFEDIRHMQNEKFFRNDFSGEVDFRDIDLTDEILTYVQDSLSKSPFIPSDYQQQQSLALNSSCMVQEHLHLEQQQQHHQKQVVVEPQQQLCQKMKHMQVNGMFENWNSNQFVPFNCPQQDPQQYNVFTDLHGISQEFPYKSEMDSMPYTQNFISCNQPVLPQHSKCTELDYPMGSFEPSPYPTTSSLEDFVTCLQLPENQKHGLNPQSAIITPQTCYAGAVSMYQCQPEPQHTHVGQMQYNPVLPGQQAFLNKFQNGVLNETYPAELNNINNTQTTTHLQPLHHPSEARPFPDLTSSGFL
UniProt Q86QH4, 1-128 partner: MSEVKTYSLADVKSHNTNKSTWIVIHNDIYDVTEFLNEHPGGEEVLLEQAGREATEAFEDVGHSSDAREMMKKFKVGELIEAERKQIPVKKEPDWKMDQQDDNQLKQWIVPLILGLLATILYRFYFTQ

With CCCC(=O)SCC[N+](C)(C)C the Km was 230 ± 40 µM (Butyrylcholinesterase; substrate; pH 8.0, 22 °C).
The Km of C[As+](C)(C)CCO is reported as 523 ± 70 µM (betP (Corynebacterium glutamicum, UniProt P54582, G153D); transport current, substrate, SSM electrophysiology; Corynebacterium glutamicum, proteoliposomes; pH 7.5, 22 °C, added: 500 mM NaCl).
CCOc1ccc2c(c1)Oc1cc(OCC)ccc1C21OC(=O)c2ccccc21 has a Vmax of 14.8 ± 4.89 RFU/s (cyp6p3 (Anopheles gambiae, UniProt Q8T632); substrate; dual plasmid expression).
`U-69593` has a Δlog(τ/KA) of 0 (OPRK1; ERK1/2 phosphorylation, agonist, operational model; CHO expressing human KOR; unit not given; baseline: reference agonist).
CC(=O)SCC[N+](C)(C)C — result for “substrate inhibition constant (Kss)”: 6.4 ± 1.1 mM (ACHE; substrate).
With CC(C)[C@H]1CC[C@@H](N2CCC(n3c(CO)cc4ccccc43)CC2)CC1 the inhibition was 65% (Sodium-dependent noradrenaline transporter (SLC6A2, Homo sapiens, UniProt P23975); radioligand binding; 10 µM).
C=CCN1CC[C@@]23c4c5ccc(O)c4C[C@@H]2[C@H](O)C=C[C@@H]3[C@@H]1C5 has an antagonist activity of ~55% (OPRM1; DAMGO response, β-arrestin2 recruitment; concentration not given, added: DAMGO; baseline: naloxone).
`ethoxymethyl salvinorin B` gave a bias factor of 1.2 (OPRK1; agonist; human receptor; baseline: larger over smaller RAi, vs dynorphin A).
For CO[C@]12CC[C@@]3(C[C@@H]1[C@@](C)(O)c1ccccn1)[C@H]1Cc4ccc(O)c5c4[C@@]3(CCN1CC1CC1)[C@H]2O5, the stimulation was 1 ± 3% (Oprm1; G protein activation, agonist; 10 µM; baseline: DAMGO).
For CCCC[C@@H]1NC(=O)[C@H](CCC(=O)O)NC(=O)[C@@H]2CCCN2C(=O)[C@H](Cc2c[nH]cn2)NC(=O)[C@H](CC(N)=O)NC(=O)[C@H](C(C)C)NC(=O)[C@H](CO)NC(=O)[C@@H]2CSSC[C@H](NC(=O)CN)C(=O)N[C@@H](CSSC[C@@H](C(N)=O)NC1=O)C(=O)N[C@@H](CO)C(=O)N[C@@H](Cc1c[nH]cn1)C(=O)N1CCC[C@H]1C(=O)N[C@@H](C)C(=O)N2, the selectivity ratio was 0.6 (Neuronal acetylcholine receptor; alpha3/beta2 (Rattus norvegicus, UniProt P04757+P12390); baseline: IC50 α6/α3β2β3 over α3β2).
For Cc1ncc(-c2cc(Cl)ccc2F)cc1-n1c(=O)n(CC(N)=O)c2ccccc21, the inhibition was 17.5% (Delta-type opioid receptor (OPRD1, Homo sapiens, UniProt P41143); binding, radioligand binding; 10 µM).
CN1[C@@H]2CC[C@H]1C[C@@H](OC(=O)C(CO)c1ccccc1)C2 (some centres unmarked) has a Hill coefficient of 0.89 (Muscarinic acetylcholine receptor; binding, [3H]QNB competition; Xenopus laevis heart homogenate).
Cc1csc(CCCNCc2cc(=O)c3cc(F)ccc3[nH]2)n1 — result for binding: “inactive” (D(2) dopamine receptor (DRD2, Homo sapiens, UniProt P14416); 10 µM).
Under EC50, CCCc1nc2c(NP(=O)(OCC)OCC)nc3ccccc3c2s1 is recorded as “inactive” (Toll-like receptor 8 (TLR8, Homo sapiens, UniProt Q9NR97); reporter gene, agonist, measured: NF-κB; HEK-Blue TLR8 cells; inactive means above 100 µM).
CO[C@]12CC[C@@]3(C[C@@H]1[C@](C)(O)c1cccc(C)c1)[C@H]1Cc4ccc(O)c5c4[C@@]3(CCN1CC1CC1)[C@H]2O5 gave a stimulation of 102 ± 1% (OPRK1; G-protein activation, agonist; 10 µM; baseline: U-69593).
With Nc1ccc(O)c(CN(C2CCCCC2)C2CCCCC2)c1 the inhibition was 9% (ACHE; enzyme activity, inhibitor; 1000 µM).
CNC(=O)Oc1ccc2c(c1)[C@]1(C)CCN(C)[C@@H]1N2C gave a k2 of 3.02 ± 0.21 min⁻¹ (Acetylcholinesterase (Ace, Anopheles gambiae, UniProt Q869C3); enzyme inhibition, inhibitor).
With `nociceptin` the maximal stimulation was 100% (OPRL1; agonist; cell membranes; baseline: standard agonist).
CO[C@]12CC[C@@]3(C[C@@H]1[C@@](C)(O)C(C)(C)C)[C@H]1Cc4c(Cl)cc(O)c5c4[C@@]3(CCN1CC1CC1)[C@H]2O5: antagonist activity “inhibited” (OPRM1; antagonist; CHO; concentration not given).
For CCN1CCN(Cc2ccc(NC(=O)c3ccc(C)c(/C=C/c4cnc5[nH]ccc5c4OC)c3)cc2C(F)(F)F)CC1, “log2 fold change” read 0.105 (SPTBN1-FLT3 fusion; kinase-CDC37 interaction, cell-based kinome screen; 5 µM; baseline: vehicle).
For O=C(O)c1ccccc1[As](=O)(O)O, the maximal inhibition was 104% (Sphingomyelin phosphodiesterase (SMPD1, Homo sapiens, UniProt P17405); enzyme activity; pH 6.5, added: sphingomyelin substrate).
For CC1(C)CCC(Cc2cc(O)c(-c3ccccc3)c(=O)[nH]2)CC1, the melting temperature was 56.3 °C (inhA; thermal shift; added: NADH ternary complex).
The Emax of CN(C(=O)Cc1cccc2occc12)[C@H]1CC[C@@]2(CCCO2)C[C@@H]1N1CCCC1 is reported as 44.8 ± 1.2% (Kappa-type opioid receptor (Oprk1, Mus musculus, UniProt P33534); receptor internalization, agonist, on-cell western; mouse receptor; baseline: control).
CC(C)C[C@@H]1NC(=O)[C@H](CCC(=O)O)NC(=O)[C@@H]2CCCN2C(=O)[C@H](Cc2c[nH]cn2)NC(=O)[C@H](CCCCC(=O)O)NC(=O)[C@H](CC(C)C)NC(=O)[C@H](Cc2c[nH]cn2)NC(=O)[C@@H]2CSSC[C@H](NC(=O)CN)C(=O)N[C@@H](CSSC[C@@H](C(N)=O)NC1=O)C(=O)N[C@@H](CO)C(=O)N[C@@H](Cc1c[nH]cn1)C(=O)N1CCC[C@H]1C(=O)N[C@@H](C)C(=O)N2 gave a selectivity ratio of 84 (Neuronal acetylcholine receptor subunit alpha-7 (Chrna7, Rattus norvegicus, UniProt Q05941); baseline: IC50 α7 over α3β2).
The Km of CCC(=O)SCC[N+](C)(C)C is reported as 250 ± 10 µM (Butyrylcholinesterase; substrate; pH 8.0, 22 °C).
For C[C@@H]1NC(=O)[C@H](CCCNC(=N)N)NC(=O)[C@H](CCCNC(=N)N)NC(=O)[C@H](Cc2c[nH]cn2)NC(=O)[C@H](CO)NC(=O)[C@@H]2CSSC[C@H](NC(=O)CN)C(=O)N[C@@H](CSSC[C@@H](C(N)=O)NC(=O)[C@H](CO)NC(=O)[C@H](CCCNC(=N)N)NC1=O)C(=O)N[C@@H](CO)C(=O)N[C@@H](Cc1c[nH]cn1)C(=O)N1CCC[C@H]1C(=O)N[C@@H](C)C(=O)N2, the remaining response was 46 ± 15% (Neuronal acetylcholine receptor subunit alpha-7 (CHRNA7, Homo sapiens, UniProt P36544); ion current, antagonist; Xenopus oocytes; 10 µM, 5 min, added: acetylcholine; baseline: control).
CO[C@]12CC[C@@]3(C[C@@H]1[C@](C)(O)c1cccc(Cl)c1)[C@H]1Cc4ccc(O)c5c4[C@@]3(CCN1CC1CC1)[C@H]2O5 has a stimulation of 14 ± 4% (Oprm1; G protein activation, agonist; 10 µM; baseline: DAMGO).
Cc1c(-c2ccc(-c3ccc(OC(F)(F)F)cc3)nc2)[nH]c2ccccc2c1=O gave a Km of 7.7 ± 0.7 µM (cydA, with CydB subunit (Mycobacterium tuberculosis, UniProt L7N662); substrate).
O=c1[nH]c(CC2CCCCC2)cc(O)c1-c1ccccc1 has a binding entropy of -0.0098 kcal/mol (inhA; isothermal titration calorimetry; concentration not given, added: NADH).
The stimulation of CO[C@]12CC[C@@]3(C[C@@H]1[C@](C)(O)c1ccc(C)s1)[C@H]1Cc4ccc(O)c5c4[C@@]3(CCN1CC1CC1)[C@H]2O5 is reported as 17 ± 3% (Oprm1; G protein activation, agonist; 10 µM; baseline: DAMGO).
`nociceptin` — result for “time to phosphorylation”: ≤ 20 s (OPRL1; receptor phosphorylation, agonist, Western blot, measured: Ser346 phosphorylation; HEK293; 10 µM).
CO[C@]12CC[C@@]3(C[C@@H]1[C@](C)(O)c1cccc(F)c1)[C@H]1Cc4ccc(O)c5c4[C@@]3(CCN1CC1CC1)[C@H]2O5 gave a stimulation of 22 ± 2% (Oprm1; G protein activation, agonist; 10 µM; baseline: DAMGO).
Cc1cccc2c1ccc1cc(C(C)C)ccc12 gave a fold change of 25.6 and 28.5 and 26.8 and 26.2 (Aryl hydrocarbon receptor (AHR, Homo sapiens, UniProt P35869); reporter gene, agonist; Huh7; 30 µM, added: 0.125 mg/mL inactivated microsomes; baseline: MeBIO 0.1 µM).
CCCCOP(=O)(OCCCC)OCCCC gave an Emax of 23% (Peroxisome proliferator-activated receptor gamma (PPARG, Homo sapiens, UniProt P37231); reporter gene, agonist; HEK293; baseline: rosiglitazone maximum).
CN(C(=O)Cc1ccc(Cl)c(Cl)c1)[C@H](CN1CCCC1)c1ccccc1 — result for “log bias factor”: 0.75 (OPRK1; agonist; baseline: G protein over internalization, vs dynorphin A, positive means G protein bias).
The Hill coefficient of O=C1CCCN1CC#CCN1CCCC1 is reported as 0.67 (Muscarinic acetylcholine receptor; binding, [3H]QNB competition; Xenopus laevis heart homogenate).
CO[C@]12CC[C@@]3(C[C@@H]1[C@](C)(O)c1ccc(C)cc1)[C@H]1Cc4ccc(O)c5c4[C@@]3(CCN1CC1CC1)[C@H]2O5 gave a stimulation of 50 ± 2% (Oprm1; G protein activation, agonist; 10 µM; baseline: DAMGO).
`methoxymethyl salvinorin B` gave an Emax of 108 ± 3.3% (OPRK1; agonist; baseline: U-50488 10 µM).

For quick reference, copied from above:
For Cc1ncc(-c2cc(Cl)ccc2F)cc1-n1c(=O)n(CC(N)=O)c2ccccc21, the inhibition was 17.5% (Delta-type opioid receptor (OPRD1, Homo sapiens, UniProt P41143); binding, radioligand binding; 10 µM).
CN1[C@@H]2CC[C@H]1C[C@@H](OC(=O)C(CO)c1ccccc1)C2 (some centres unmarked) has a Hill coefficient of 0.89 (Muscarinic acetylcholine receptor; binding, [3H]QNB competition; Xenopus laevis heart homogenate).
Cc1csc(CCCNCc2cc(=O)c3cc(F)ccc3[nH]2)n1 — result for binding: “inactive” (D(2) dopamine receptor (DRD2, Homo sapiens, UniProt P14416); 10 µM).
Under EC50, CCCc1nc2c(NP(=O)(OCC)OCC)nc3ccccc3c2s1 is recorded as “inactive” (Toll-like receptor 8 (TLR8, Homo sapiens, UniProt Q9NR97); reporter gene, agonist, measured: NF-κB; HEK-Blue TLR8 cells; inactive means above 100 µM).
